# Assay results from different studies.
# Each line is one published result; not all experiments were run side by side.
# Organism: Escherichia coli
Structure (SMILES),test,system,setting,MIC
CC[C@H]1OC(=O)[C@H](C)[C@@H](OC(=O)Cc2ccc3c(c2)OCO3)[C@H](C)[C@@H](O[C@@H]2O[C@H](C)C[C@H](N(C)C)[C@H]2O)[C@](C)(OC)C[C@@H](C)C(=O)[C@H](C)[C@@H](O)[C@]1(C)O,,DSM 30083,with: colistin sulfate at 0.5 x MIC,0.25 µM
O=[N+]([O-])c1c(Br)c(Cl)c2cccnc2c1O,"microbial growth, broth dilution",ATCC35218,,4 µg/mL
COc1ccc2ccc(O)c(/C=N/[C@H]3CCCC[C@H]3/N=C/c3cc(C(C)(C)C)cc(C(C)(C)C)c3O)c2c1,"microbial growth, broth dilution",,,> 40 µM
CCOc1c(NC(=O)c2ccc(NC(=O)c3ccc(NC(=O)[C@H](Cc4c[nH]nn4)NC(=O)c4ccc(NC(=O)/C(C)=C/c5ccc(O)cc5)cc4)cc3)c(OC)c2O)ccc(C(=O)O)c1O,broth microdilution,ciprofloxacin-resistant,,0.5 µg/mL
CC[C@H](C)[C@H](NC(=O)[C@@H](CCCNC(=N)N)NC(=O)[C@H](CCCNC(=N)N)NC(=O)[C@@H]1CCCN1C(=O)[C@@H]1CCCN1C(=O)[C@H](CCCNC(=N)N)NC(=O)[C@@H]1CCCN1C(=O)[C@H](CCCNC(=N)N)NC(=O)[C@@H]1CCCN1C(=O)[C@H](CCCNC(=N)N)NC(=O)[C@H](Cc1ccc(O)cc1)NC(=O)[C@@H]1CCCN1C(=O)[C@@H]1CCCN1C(=O)[C@H](CCCCN)NC(=O)[C@H](CC(=O)O)NC(=O)[C@@H](N)C(C)C)C(=O)N[C@@H](Cc1ccc(O)cc1)C(=O)N[C@@H](CC(N)=O)C(=O)N[C@H](CCCNC(=N)N)C(N)=O,broth microdilution,ATCC 25922,"18 h, 37 °C, 25% MHB2",16 µg/mL
CC[C@H]1OC(=O)[C@H](C)[C@@H](OC(=O)Cc2cccc([N+](=O)[O-])c2)[C@H](C)[C@@H](O[C@@H]2O[C@H](C)C[C@H](N(C)C)[C@H]2O)[C@](C)(OC)C[C@@H](C)C(=O)[C@H](C)[C@@H](O)[C@]1(C)O,microbial growth,ATCC25922,,> 32 µg/mL
COc1ccc(O)c(/C=N/[C@@H]2CCCC[C@@H]2/N=C/c2c(O)ccc3ccc(OC)cc23)c1,"microbial growth, broth dilution",,clinical isolate,> 40 µM
CCCCCC[N+](C)(C)CCCCCCCCOc1cc(OCCCCCCCC[N+](C)(C)CCCCCC)cc(OCCCCCCCC[N+](C)(C)CCCCCC)c1.[Br-].[Br-].[Br-],,MC4100,,1 µM
COC(=O)CC(C)c1nn(C)c2nc(N)[nH]c(=O)c2c1=O (stereo not shown),"microbial growth, broth dilution",BW25113,18 h,> 100 µg/mL
COc1c(C)c(O)c(C(=O)C=Cc2ccccc2)c(OC)c1C,"microbial growth, broth dilution",ATCC25922,,5000 µg/mL
CCCCCCCCn1cc[n+](CCCCCCCCOc2cc(OCCCCCCCC[n+]3ccn(CCCCCCCC)c3)cc(OCCCCCCCC[n+]3ccn(CCCCCCCC)c3)c2)c1.[Br-].[Br-].[Br-],,MC4100,,2 µM
COC(C(N)=O)C(NC(=O)c1ccc(NC(=O)c2ccc(C#N)cc2)cc1)C(=O)Nc1ccc(C(=O)Nc2ccc(C(=O)Nc3ccc(C(=O)O)cc3)c(O)c2OC(C)C)cc1 (stereo not shown),,BW25113 ΔtolC,,0.08 µg/mL
C=CCO/N=C(\C(=O)N[C@@H]1C(=O)N(OS(=O)(=O)O)C1(C)C)c1nsc(N)n1,agar dilution,"16-1, ESBL-producing",,0.25 µg/mL
CC[C@H]1OC(=O)[C@H](C)[C@@H](OC(=O)Cc2ccc([N+](=O)[O-])cc2)[C@H](C)[C@@H](O[C@@H]2O[C@H](C)C[C@H](N(C)C)[C@H]2O)[C@](C)(OC)C[C@@H](C)C(=O)[C@H](C)[C@@H](O)[C@]1(C)O,,tolC,,2 µg/mL
COc1cc(C(=O)Nc2ccc(C(=O)O)cc2)ccc1NC(=O)c1ccc(NC(=O)[C@H](Cc2c[nH]nn2)NC(=O)c2ccc(NC(=O)/C(C)=C/c3ccc(O)cc3)cc2)cc1,broth microdilution,BW25113,,4 µg/mL
CC[C@H]1OC(=O)[C@H](C)[C@@H](OC(=O)Cc2c(F)cc([N+](=O)[O-])cc2F)[C@H](C)[C@@H](O[C@@H]2O[C@H](C)C[C@H](N(C)C)[C@H]2O)[C@](C)(OC)C[C@@H](C)C(=O)[C@H](C)[C@@H](O)[C@]1(C)O,,DSM 30083,with: colistin sulfate at 0.1 x MIC,32 µM
CN[C@H](CC(C)C)C(=O)N[C@H]1C(=O)N[C@@H](CC(N)=O)C(=O)N[C@H]2C(=O)N[C@H]3C(=O)N[C@H](C(=O)N[C@H](C(=O)O)c4cc(O)cc(O)c4-c4cc3ccc4O)[C@H](O)c3ccc(c(Cl)c3)Oc3cc2cc(c3O[C@@H]2O[C@H](CO)[C@@H](O)[C@H](O)[C@H]2O[C@H]2C[C@](C)(NCc3ccc(OCc4cn(CC(=O)N[C@H](C(=O)N[C@@H](CCN)C(=O)N[C@H]5CCNC(=O)[C@H]([C@@H](C)O)NC(=O)[C@H](CCN)NC(=O)[C@H](CCN)NC(=O)[C@H](CC(C)C)NC(=O)[C@@H](CC(C)C)NC(=O)[C@H](CCN)NC5=O)[C@@H](C)O)nn4)c(OC)c3)[C@H](O)[C@H](C)O2)Oc2ccc(cc2Cl)[C@H]1O,broth microdilution,ATCC 25922,18 to 20 h,16 µg/mL
COc1cc(C(=O)O)ccc1NC(=O)c1ccc(NC(=O)c2ccc(NC(=O)[C@H](Cc3c[nH]nn3)NC(=O)c3ccc(NC(=O)/C(C)=C/c4ccc(O)cc4)cc3)cc2)c(OC)c1,broth microdilution,BW25113,,0.25 µg/mL
Cn1nc(CNc2nnn[nH]2)c(=O)c2c(=O)[nH]c(N)nc21,"microbial growth, broth dilution",BW25113,18 h,> 100 µg/mL
COc1c(NC(=O)c2ccc(NC(=O)c3ccc(NC(=O)[C@H](Cc4c[nH]nn4)NC(=O)c4ccc(NC(=O)/C(C)=C/c5ccc(O)cc5)cc4)cc3)cc2O)ccc(C(=O)O)c1O,broth microdilution,ciprofloxacin-sensitive,,0.5 µg/mL
CCC(CC)c1cc(CCN2CCCNCC2)nc(-c2ccccn2)n1,"microbial growth, broth dilution",ATCC25922,,> 64 µg/mL
CC[C@H]1OC(=O)[C@H](C)[C@@H](OC(=O)Cc2c(F)cccc2F)[C@H](C)[C@@H](O[C@@H]2O[C@H](C)C[C@H](N(C)C)[C@H]2O)[C@](C)(OC)C[C@@H](C)C(=O)[C@H](C)[C@@H](O)[C@]1(C)O,,DSM 30083,with: colistin sulfate at 0.5 x MIC,2 µM
C#CCOc1ccc(CN[C@@]2(C)C[C@H](O[C@H]3[C@H](Oc4c5cc6cc4Oc4ccc(cc4Cl)[C@@H](O)[C@@H](NC(=O)[C@@H](CC(C)C)NC)C(=O)N[C@@H](CC(N)=O)C(=O)N[C@H]6C(=O)N[C@H]4C(=O)N[C@H](C(=O)N[C@H](C(=O)NCC(N)=O)c6cc(O)cc(O)c6-c6cc4ccc6O)[C@H](O)c4ccc(c(Cl)c4)O5)O[C@H](CO)[C@@H](O)[C@@H]3O)O[C@@H](C)[C@H]2O)cc1OC,broth microdilution,"ATCC 35218, cation-adjusted Mueller-Hinton broth","18 to 20 h, 37 °C, 0.002% polysorbate 80",32 µg/mL
COc1nc(C(=O)Nc2ccc(C(=O)O)nc2OC)ccc1NC(=O)c1ccc(NC(=O)[C@H](Cc2c[nH]nn2)NC(=O)c2ccc(NC(=O)/C(C)=C/c3ccc(O)cc3)cc2)cc1,broth microdilution,ciprofloxacin-resistant,,8 µg/mL
CC1(C)[C@H](NC(=O)/C(=N\OCc2cc(=O)c(O)cn2O)c2csc(N)n2)C(=O)N1OS(=O)(=O)O,"microbial growth, agar dilution",ATCC25,,0.06 µg/mL
COc1cccc(OC)c1C(=O)N[C@@H]1C(=O)N2[C@@H]1SC(C)(C)[C@@H]2C(=O)O,"microbial growth, broth dilution",25922,,> 128 µM
CCCCCCCCCCCCCCCCCCn1cc(CN(CCC(=O)NCCN(CCC(=O)NCCN(CCC(=O)NCCN(C)C)CCC(=O)NCCN(C)C)CCC(=O)NCCN(CCC(=O)NCCN(C)C)CCC(=O)NCCN(C)C)CCC(=O)NCCN(CCC(=O)NCCN(CCC(=O)NCCN(C)C)CCC(=O)NCCN(C)C)CCC(=O)NCCN(CCC(=O)NCCN(C)C)CCC(=O)NCCN(C)C)nn1,broth microdilution,"ATCC 25922, LB broth",with: 500 mM glutathione,6 µg/mL
C/C(=C\c1ccc(O)cc1)C(=O)Nc1ccc(C(=O)N[C@@H](Cc2c[nH]nn2)C(=O)Nc2ccc(C(=O)Nc3ccc(C(=O)Nc4ccc(C(=O)O)cc4)cc3)cc2)cc1,broth microdilution,DSM 1116,,0.125 µg/mL
CC1(C)[C@H](NC(=O)/C(=N\OCc2c(Cl)cccc2Cl)c2nsc(N)n2)C(=O)N1OS(=O)(=O)O,agar dilution,"16-1, ESBL-producing",,4 µg/mL
CN[C@H](CC(C)C)C(=O)N[C@H]1C(=O)N[C@@H](CC(N)=O)C(=O)N[C@H]2C(=O)N[C@H]3C(=O)N[C@H](C(=O)N[C@H](C(=O)O)c4cc(O)cc(O)c4-c4cc3ccc4O)[C@H](O)c3ccc(c(Cl)c3)Oc3cc2cc(c3O[C@@H]2O[C@H](CO)[C@@H](O)[C@H](O)[C@H]2O[C@H]2C[C@](C)(NCc3ccc(OCc4cn(CCCCC(=O)N[C@H](C(=O)N[C@@H](CCN)C(=O)N[C@H]5CCNC(=O)[C@H]([C@@H](C)O)NC(=O)[C@H](CCN)NC(=O)[C@H](CCN)NC(=O)[C@H](CC(C)C)NC(=O)[C@@H](CC(C)C)NC(=O)[C@H](CCN)NC5=O)[C@@H](C)O)nn4)c(OC)c3)[C@H](O)[C@H](C)O2)Oc2ccc(cc2Cl)[C@H]1O,broth microdilution,ATCC 25922,18 to 20 h,16 µg/mL
COc1nc(C(=O)O)ccc1NC(=O)c1ccc(NC(=O)c2ccc(NC(=O)[C@H](Cc3c[nH]nn3)NC(=O)c3ccc(NC(=O)/C(C)=C/c4ccc(O)cc4)cc3)cc2)c(OC)c1O,broth microdilution,DSM 1116,,0.5 µg/mL
COc1cc(Cc2cnc(N)nc2N)cc(OC)c1OC.O=c1[nH]cc(F)c(=O)[nH]1,broth microdilution,,24 h,> 32 µg/mL
COc1cc(C(=O)Nc2ccc(C(=O)O)c(O)c2)ccc1NC(=O)c1ccc(NC(=O)[C@H](Cc2c[nH]nn2)NC(=O)c2ccc(NC(=O)/C(C)=C/c3ccc(O)cc3)cc2)cc1,broth microdilution,DSM 1116,,0.25 µg/mL
CC[C@H](C)[C@H](N)C1=N[C@H](C(=O)N[C@@H](CC(C)C)C(=O)N[C@H](CCC(=O)O)C(=O)N[C@H](C(=O)N[C@H]2CCCCNC(=O)[C@H](CC(N)=O)NC(=O)[C@@H](CC(=O)O)NC(=O)[C@H](Cc3c[nH]cn3)NC(=O)[C@@H](Cc3ccccc3)NC(=O)[C@H]([C@@H](C)CC)NC(=O)[C@@H](CCCN)NC2=O)[C@@H](C)CC)CS1,,ATCC 25922,"18 h, 37 °C, 0.3 mM ZnSO4 LB",> 64 µg/mL
